{"data": "Measured values collected from several papers", "note": "A part holds a random share of what one study measured. Positions count from the first letter of the parent shown."}
{"data": "Set 1", "target": "Histone acetyltransferase KAT6A, winged helix 2, GST fusion (KAT6A, Homo sapiens, UniProt Q92794, residues 85-181)", "method": "protein binding microarray", "molecule type": "double-stranded DNA, one strand shown", "medium": "in vitro", "concentration": "not given", "notes": "8-mer, flanks averaged, mean of 2 arrays, mostly near background", "baseline": "not given", "reading": "higher = stronger binding", "Residues (chain)": "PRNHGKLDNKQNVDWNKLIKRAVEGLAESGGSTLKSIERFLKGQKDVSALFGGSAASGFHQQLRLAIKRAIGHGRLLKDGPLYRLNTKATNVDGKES"}
{"Strand": "CGACAATA", "E-score": -0.0417}
{"Strand": "AAAGAGCT", "E-score": 0.0421}
{"Strand": "CCGCTAAC", "E-score": 0.0774}
{"Strand": "GTTAGATA", "E-score": -0.127}
{"Strand": "GAGAAGTA", "E-score": -0.138}
{"Strand": "ATGCCCAG", "E-score": 0.155}
{"Strand": "GAACGTTC", "E-score": -0.309}
{"Strand": "ACGGCGGG", "E-score": 0.199}
{"Strand": "GACGGCCA", "E-score": 0.0459}
{"Strand": "ACCGCGCT", "E-score": 0.0589}
{"Strand": "CCAGGGAC", "E-score": -0.146}
{"Strand": "GAGCCCGC", "E-score": 0.125}
{"Strand": "AATTAGCG", "E-score": -0.131}
{"Strand": "CTAGTGTC", "E-score": 0.0232}
{"Strand": "CCCGCCGC", "E-score": 0.28}
{"Strand": "AGGTCACC", "E-score": 0.101}
{"Strand": "TATGAATA", "E-score": -0.0321}
{"data": "Set 2", "target": "RNA binding protein fox-1 homolog 2, RRM domain, GST-SBP tag (RBFOX2, Homo sapiens, UniProt O43251-10, residues 100-194)", "method": "RNA Bind-n-Seq", "molecule type": "RNA", "medium": "in vitro", "concentration": "365 nM", "notes": "natural RNA segment, single round, ends assumed", "baseline": "no-protein control", "reading": "higher = stronger binding", "shared flanks, not repeated": "GGGAGUUCUACAGUCCGACGAUC … UGGAAUUCUCGGGUGCCAA", "Residues (chain)": "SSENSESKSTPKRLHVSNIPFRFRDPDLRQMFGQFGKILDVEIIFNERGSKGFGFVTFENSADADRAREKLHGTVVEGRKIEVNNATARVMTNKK"}
{"Strand": "CCUCUAUUUGGCUGUAGUCUGCUCUGGGGCUUUCACUGUCAGUCUGGGGCAUGGGCUGAGCAAGUAUUUGUGUGGUCAAGGAAGUGCUAUGCCAACAUCUCCCAUUGGAA", "RBNS enrichment (R)": 1.09}
{"Strand": "GCAUCUGUCUGCAGCUAAUGUACCUCCUGGACACCAGGAGGGGAAAAAGCACUUUUUCAAUUGUGCUGAGUUAGACAUCUGUGAGUUAGACUAUGGUGUCAGUGAUUUUU", "RBNS enrichment (R)": 0.506}
{"Strand": "UUUCAGAUCCACUUAAAAUAUUUAGAAAAACGAGUUUUAUUCCUUAUGGGUCUUAUAGGGGAUAAAAUGCUCUUCUUCCAUGCGACACUUCCUUUCCCAUGAACACUUGC", "RBNS enrichment (R)": 0.418}
{"Strand": "UGACUUCUUUGCAUAGUGAGUGACUUGGGCCUUCACAAACAGGGUGUGGAGUGGCAGGCAGAGGCCUCUAAAUCUCAGGGCAAACAUGGUGAAUCUAUCUCUCCGGAGAU", "RBNS enrichment (R)": 0.531}
{"Strand": "AGCAAGAUCAUGCCUUCUCUGUCUGGAAGAGGCAACAGUUUGGAGAUCCUGUCAUCAUGGGACGUCAGUGUUUUUUGUUAAAGGGGACAUACAUGGGGGCAUGUCAUGGG", "RBNS enrichment (R)": 0.914}
{"Strand": "CAGGUAUCACAAAGCAUUUGUGAAUUGCUUUAGGUGCAGGGACACCACCCACUCAGGACUCUUCCCCAUCAUCCCUUCCAUUGCCACACCCUAGAUCCAGCCUCAGGAAC", "RBNS enrichment (R)": 0.542}
{"Strand": "CCCACCCUGGGAGAUGAGGGGGUCCCCAUGUGCUUUUCCAGUUCUUCUGGAAUUGGGGGACCCCCGCCAAAGACUGAGCCCCCUGUCUCCUCCAUCAUUUGGUUUCCUCU", "RBNS enrichment (R)": 0.288}
{"Strand": "UAAAACUGGUGGGUAGCUGGGCUGUCCGUUACCACCACAGCUACAUCUUCUGUUUCUUUGAAUAGAAAGCACCACAGUGUUUUGCACUUGCCUCCAGUAAAGUGCCCUGG", "RBNS enrichment (R)": 0.318}
{"data": "Set 3", "target": "Ras GTPase-activating protein-binding protein 1, RRM domain (G3BP1, Homo sapiens, UniProt Q13283)", "method": "RNA Bind-n-Seq", "molecule type": "RNA", "medium": "in vitro", "concentration": "1 µM", "notes": "whole 134-nt RNA, ends assumed", "added": "150 mM KCl", "baseline": "input library", "reading": "higher = stronger binding", "shared flanks, not repeated": "GGGAGUUCUACAGUCCGACGAUC … UGGAAUUCUCGGGUGUCAAGG", "sequence of UniProt Q13283 (whole entry, looked up)": "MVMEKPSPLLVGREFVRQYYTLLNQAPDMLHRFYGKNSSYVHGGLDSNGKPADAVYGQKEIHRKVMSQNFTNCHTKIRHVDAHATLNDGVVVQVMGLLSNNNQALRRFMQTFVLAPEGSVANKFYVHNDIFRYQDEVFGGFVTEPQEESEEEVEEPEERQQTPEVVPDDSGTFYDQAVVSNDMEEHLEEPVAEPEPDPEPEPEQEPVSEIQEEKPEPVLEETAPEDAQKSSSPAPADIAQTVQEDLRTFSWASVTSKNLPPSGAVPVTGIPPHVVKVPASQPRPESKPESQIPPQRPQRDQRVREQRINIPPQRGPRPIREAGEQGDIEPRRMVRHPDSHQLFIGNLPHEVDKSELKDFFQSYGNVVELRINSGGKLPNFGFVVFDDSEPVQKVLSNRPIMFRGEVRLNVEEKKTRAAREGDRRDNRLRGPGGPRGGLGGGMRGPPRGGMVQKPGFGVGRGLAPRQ"}
{"Strand": "AGUCCUGUGCUACACAUCGUAUGUACCGAAUCGGGGUUUUUGGUUUUUGGUUUUUGGGAAAGUAUUAUGUUACGCCGUUCGGAUCUGCAC", "log2 enrichment": -0.273}
{"Strand": "UUUGAAGGUGAUUUCUGGCCCAAUGUGUUAGAAGAGAGCAUUAAGGAACUAGAACAAGAAGAAGAGGAGAGGAAAAAGGAAGAGAGCACU", "log2 enrichment": -0.0885}
{"Strand": "UUCCUCAAGUCCUGUGCUACACAUCGUAUGUACCGAAUCGGUGGAGGAGGAAAGUAUUAUGUUACGCCGUUCGGAUCUGCACUUCCAGCA", "log2 enrichment": -0.38}
{"Strand": "CAAGUCCUGUGCUACACAUCGUAUGUACCGAAUCGGUUUGGUUUGGGGUUUGGGGAAAGUAUUAUGUUACGCCGUUCGGAUCUGCACUUC", "log2 enrichment": -0.272}
{"Strand": "UGUGCUACACAUCGUAUGUACCGAAUCGGGGUUUUUUUGGGGUUUUUGGGGUUUUUUUGGGGAAAGUAUUAUGUUACGCCGUUCGGAUCU", "log2 enrichment": 0.851}
{"Strand": "CAAGUCCUGUGCUACACAUCGUAUGUACCGAAUCGGAAAAAGGAAAAAGGUUUGGAAAGUAUUAUGUUACGCCGUUCGGAUCUGCACUUC", "log2 enrichment": -0.218}
{"Strand": "AAGUCGCGUGUCUAGGUGAGUCGCGGUGGGUCCUCGCUUGCAGUUCAGCGACCACGGUGGGUACCGUUUUUGCGAGGAUUGUUUGUCCCC", "log2 enrichment": -0.42}
{"Strand": "UAACUUUUGAGGAGGAUCUGAUGGAUAUGGCAGUGGACGUGGAUUUGGGGAUGGCUAUAAUGGGUAUGGAGGAGGACCUGGAGGUGGCAA", "log2 enrichment": -0.718}
{"Strand": "CUGUGCUACACAUCGUAUGUACCGAAUCGGGGUUUUUGGGGUUUUUUUGGGGUUUUUGGGGAAAGUAUUAUGUUACGCCGUUCGGAUCUG", "log2 enrichment": 0.819}
{"data": "Set 4", "target": "ABI1, truncated, D143A, DHFR fusion (Arabidopsis thaliana, UniProt P49597)", "method": "DHFR PCA, dose-response", "medium": "yeast", "notes": "Hill fit, not affinity, not high confidence", "added": "(+)-ABA, dose series", "reading": "lower = more sensitive", "starting sequence": "PYL1, truncated, DHFR fusion (Arabidopsis thaliana, UniProt Q8VZS8); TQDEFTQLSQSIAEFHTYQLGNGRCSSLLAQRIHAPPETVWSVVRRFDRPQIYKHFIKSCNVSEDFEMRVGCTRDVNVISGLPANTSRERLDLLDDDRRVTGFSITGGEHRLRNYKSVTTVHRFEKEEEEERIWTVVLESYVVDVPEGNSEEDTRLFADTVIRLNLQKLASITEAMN"}
{"Change": "L138P", "ABA EC50 [µM]": 0.0667}
{"Change": "Y115C", "ABA EC50 [µM]": 1600}
{"Change": "T154I", "ABA EC50 [µM]": 48.2}
{"Change": "V121S", "ABA EC50 [µM]": 1730}
{"Change": "R74M", "ABA EC50 [µM]": 0.377}
{"Change": "G81Y", "ABA EC50 [µM]": 1500}
{"Change": "E89P", "ABA EC50 [µM]": 0.0632}
{"Change": "H122P", "ABA EC50 [µM]": 755}
{"Change": "V121G", "ABA EC50 [µM]": 101}
{"Change": "H110Y", "ABA EC50 [µM]": 0.116}
{"Change": "D159I", "ABA EC50 [µM]": 1730}
{"Change": "W41N", "ABA EC50 [µM]": 63.5}
{"Change": "F47R", "ABA EC50 [µM]": 12.3}
{"Change": "T160P", "ABA EC50 [µM]": 15}
{"Change": "N149P", "ABA EC50 [µM]": 749}
{"data": "Set 5", "target": "CCNB1, cyclin fold, Cln2 fusion (human)", "method": "yeast growth competition, sequencing", "medium": "yeast", "notes": "strong parent motif", "baseline": "not given", "reading": "higher = stronger binding", "starting sequence": "BRCA2 docking peptide (human); PSIKRNLLNEFDR; partner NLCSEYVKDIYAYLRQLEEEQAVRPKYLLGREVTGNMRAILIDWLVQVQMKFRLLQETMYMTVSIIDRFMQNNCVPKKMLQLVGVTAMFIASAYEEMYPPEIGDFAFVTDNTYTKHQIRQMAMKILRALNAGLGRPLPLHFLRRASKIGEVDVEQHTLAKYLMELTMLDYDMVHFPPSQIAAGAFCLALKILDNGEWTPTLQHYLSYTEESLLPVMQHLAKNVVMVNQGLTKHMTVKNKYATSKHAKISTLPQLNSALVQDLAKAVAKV"}
{"Change": "PSIKRALLNEFDR [N6A]", "normalised enrichment score": 1.48}
{"Change": "PSIKRNLLNRFDR [E10R]", "normalised enrichment score": -0.135}
{"Change": "PSCKRNLLNEFDR [I3C]", "normalised enrichment score": 2.03}
{"Change": "PSIKENLLNEFDR [R5E]", "normalised enrichment score": -1.04}
{"Change": "PSIKRNLKNEFDR [L8K]", "normalised enrichment score": 0.704}
{"Change": "PSIKMNLLNEFDR [R5M]", "normalised enrichment score": 0.695}
{"Change": "PSIKRNLLNGFDR [E10G]", "normalised enrichment score": 0.327}
{"Change": "ISIKRNLLNEFDR [P1I]", "normalised enrichment score": 2.14}
{"Change": "PSIKRNLLNEFER [D12E]", "normalised enrichment score": 2.83}
{"Change": "PSIKRNLLNEFVR [D12V]", "normalised enrichment score": 1.55}
{"Change": "PSIKRWLLNEFDR [N6W]", "normalised enrichment score": 0.325}
{"Change": "PSIKRNLLNEFNR [D12N]", "normalised enrichment score": 2.47}
{"Change": "PSIKRNQLNEFDR [L7Q]", "normalised enrichment score": 1.3}
{"Change": "PSIKRNLLAEFDR [N9A]", "normalised enrichment score": 3.45}
{"Change": "PSIKRNLLNEFDP [R13P]", "normalised enrichment score": 1.32}
{"Change": "PSGKRNLLNEFDR [I3G]", "normalised enrichment score": 0.349}
{"Change": "PSIKWNLLNEFDR [R5W]", "normalised enrichment score": 0.451}
{"Change": "PRIKRNLLNEFDR [S2R]", "normalised enrichment score": 0.978}
{"Change": "PSIHRNLLNEFDR [K4H]", "normalised enrichment score": 0.786}
{"Change": "PSIKRNLLDEFDR [N9D]", "normalised enrichment score": 3.08}
{"Change": "PSIKRNLINEFDR [L8I]", "normalised enrichment score": 1.82}
{"Change": "PSIKRNLLNEFGR [D12G]", "normalised enrichment score": 1.22}
{"Change": "PSIKRNLLNYFDR [E10Y]", "normalised enrichment score": 0.788}
{"Change": "PSIKRHLLNEFDR [N6H]", "normalised enrichment score": 0.527}
{"Change": "PSIKRLLLNEFDR [N6L]", "normalised enrichment score": 0.413}
{"note": "For quick reference, copied from above (set 5):"}
{"Change": "PSIKMNLLNEFDR [R5M]", "normalised enrichment score": 0.695}
{"Change": "PSIKRNLLNGFDR [E10G]", "normalised enrichment score": 0.327}
{"Change": "ISIKRNLLNEFDR [P1I]", "normalised enrichment score": 2.14}
{"Change": "PSIKRNLLNEFER [D12E]", "normalised enrichment score": 2.83}
{"Change": "PSIKRNLLNEFVR [D12V]", "normalised enrichment score": 1.55}
{"Change": "PSIKRWLLNEFDR [N6W]", "normalised enrichment score": 0.325}
{"Change": "PSIKRNLLNEFNR [D12N]", "normalised enrichment score": 2.47}
